# Results pooled from the literature.
# A part holds a random share of what one study measured.

# Set 1 — method: RNA Bind-n-Seq; molecule type: RNA; sample: in vitro; concentration: not given; notes: RNA with constant flanks, ends assumed; reference: input RNA pool; direction: higher = stronger binding
# Target: RING finger protein unkempt homolog, zinc fingers 1-6, GST-SBP tag (UNK, Homo sapiens, UniProt Q9C0B0, residues 30-357)
# UniProt Q9C0B0, sequence (30-357, looked up): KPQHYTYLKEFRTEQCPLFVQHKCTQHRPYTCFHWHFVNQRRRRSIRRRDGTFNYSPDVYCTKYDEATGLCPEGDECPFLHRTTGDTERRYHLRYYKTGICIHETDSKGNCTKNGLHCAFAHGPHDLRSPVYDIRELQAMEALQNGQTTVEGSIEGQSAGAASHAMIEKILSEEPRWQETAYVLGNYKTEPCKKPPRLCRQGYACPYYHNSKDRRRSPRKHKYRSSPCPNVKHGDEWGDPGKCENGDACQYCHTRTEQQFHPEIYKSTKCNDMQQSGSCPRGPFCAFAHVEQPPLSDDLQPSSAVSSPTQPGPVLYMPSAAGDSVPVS
# All sequences stand within: GGGAGUUCUACAGUCCGACGAUC … CAACAGAGGAUUGAGCAUCA
Sequence,bound/input enrichment [ratio]
CGUCAAACUUUUGGUUGUGUGGGGUUUUUUGUUGUUUUUUGGGUUUUGUUUUUUAAUACUUCCGGGUCCUGAUUUGUGGGAACAGACCUUCUUGUAAAUAACCACUAUUUGAGUUGUGGC,0.91
GAUAUUGUGCUUGCCAUCCUUGAAUUACUAAAGUAUCAUCAGAGAGUCUUAUAUAUUGAUACCGAUAUUCAUCAUGGUGAUGGUGUUGAAGAAGCUUUUUAUACAACAGAUCGUGUAAUG,0.23
CUCAUGGCUGCAGAAACAGGAAGUGGAAAAACUGGUGCAUUUAGUAUUCCCGUUAUCCAGACCGUGUAUGAAACUCUGAAAGACCAACAGGAAGGAAAGAAAGGGAAAACAACUAUUAAA,0.55
GGUGGAGAUGGAGAUGAUAUGGAAAUAUUCAUGGAGGAGAUGAGAGAAAUCAGAAGAAAACUCCGGGAGCUGCAGUUGAGGAAUUGUCUGCGUAUCCUUAUGGGGGAGCUCUCUAAUCAC,0.51
CAAAGCAUUGAGCGUUCUCAUCGGAUUGCCACAGAAACUGAUCAAAUUGGUACAGAAAUCACCGAAGAGUUGGGGGAGCAACGAGACCAGUUGGAACGUACUAAGAGCAGACUGGUAAAU,0.265
GAUGGCCUUACUAAGUUUUUUACACCAUCACCUGAUGGUCGCAGAUCCCGAGGUGAAAUAACCGACUUUUCAAAGCACUAUCGUCCAAGGAAAAAGGUCUCUCAGAAACAGUCAUGCACU,0.118
AAAGGACUUACUGAGCAGCAAAAGGAAGGCAUCCGCAUGGUGACAAGGGUGAUGCUGUCCUCCGAAGGCGAAGACGGGCUGGAUGAAAUUUAUUCCUUCAGUGAGAGUCUACGACAACUG,0.257
GAAGAACCAAGAGCUUUAUACAUACAUUGUUAUGCACACUUUUUGGAUUUAUCAAUAAUCCGGUUUUGUAAAGAAGUAAAAGAACUCCGAAGUGCUCUAAAAACUCUCAGUUCUUUGUUC,0.191
CCGUUUGACAACACUACCUACAAGAACCUGCAGCAUCAUGACUACAGCACGUACACCUUCUCCGACCUCAACCUCGAACUCUCAAAAUUCAGGAUGCCUCAGCCCUCCUCAGGCCGGGAG,0.262
AGCAUUUUCCCCUGUUACCUUUAUAUUACACAAUCUGUUCUAUGGUAACAAUACAGAGGAGCGAGCCCGUUUACUGCACCAGUGUUAAUAGGAAAUUUCAGUAUAUCAUGAACAAAUCGA,0.583
GAGCUGAGUUUAAUCAGGUGUCCAAAAUGUGAGUUAAACAUUACCUUAUAUUUACACUGUCCGUUUUUAUUGUUUUAGAUUUAUUAUGCUUCUUCUGGAAGUAUUAGUGAUGCUACUUUU,67.1

# Set 2 — method: competition protein-binding microarray; molecule type: double-stranded DNA, one strand shown; sample: in vitro; concentration: 2 µM; together with: Pho4 competitor, 0.05 µM; direction: higher = stronger binding; all sequences stand within: … GTCTTGATTCGCTTGACGCTGCTG
# Target: Centromere-binding protein 1, full length, His-tagged (CBF1, Saccharomyces cerevisiae, UniProt P17106, residues 1-351)
# UniProt P17106, sequence (whole entry, looked up): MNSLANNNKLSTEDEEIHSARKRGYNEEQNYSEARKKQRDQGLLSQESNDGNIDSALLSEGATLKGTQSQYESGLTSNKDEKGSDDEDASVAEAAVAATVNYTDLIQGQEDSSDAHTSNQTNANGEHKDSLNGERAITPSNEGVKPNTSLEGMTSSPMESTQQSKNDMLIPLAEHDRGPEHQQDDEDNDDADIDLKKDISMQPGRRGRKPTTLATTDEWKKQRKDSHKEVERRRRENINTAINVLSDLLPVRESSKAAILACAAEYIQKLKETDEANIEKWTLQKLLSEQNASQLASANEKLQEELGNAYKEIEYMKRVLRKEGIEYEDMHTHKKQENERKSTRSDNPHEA
# Notes: whole 60-bp probe, lowest competitor level
Sequence,fluorescence intensity [a.u.]
CTTTCCCGATCTTGCCACGTGTTTTTAGCACATTTG,1200
CGTCCTAGTGATTGCAAGGTGGGTGCCATGAGGAAG,80.7
CGGGGTTAAGTTTTTCACGTGTGGTGCTTGCAGCAG,425
TCTATAATAACGTCCCACGTGAAAATACCAACCTCT,931
CTTCTGTAAATTTGACAGGTGGGTGGACGCGCCCCG,71.1
TGAAATGGAATCGACCACGGGTCTTGTTGAAAGCAG,95.4
CATACCCAACCTTGCCCGGTGGGTGAAGATATTTGT,58.4
CATTCTGCCACTGACCACGTGGTAACGCCAACTACG,2300
GAAAGGGTTTAGTACCACATGCTATGATGCCCACTG,105
TTCGCCGATTCTAATCATGTGACGCCTTTTCCCCAG,2140
TGAAACATTTTTCAACGCGTGTAACAATTTGCATCT,103
CATACCCAACCTTGTCACGCTACTTAAGATATTTGT,292
GAGATCCAGATGTCGCACGTGACCTAAGTGAGACTG,7830
CGGGGTTAAGTTTGACGCGTGGGTGGCTTGCAGCAG,79.3
AAATTACTAAGTTTTCACGTGGTGTACCCCGTATGA,1040
CATTGGTGTCGTCATCACCTGATGCAGTTGGAGTCG,557
GTCTTGTCTCATTTTCACGTGATGTTCCCCACTTCA,2170
CTTCTGTAAATTTTTCACGTGGGTTGACGCGCCCCG,694

# Set 3 — method: protein binding microarray; molecule type: double-stranded DNA, one strand shown; sample: in vitro; concentration: not given; reference: not given; direction: higher = stronger binding
# Target: Histone acetyltransferase KAT6A, both winged helices, GST fusion (KAT6A, Homo sapiens, UniProt Q92794, residues 1-181)
# Notes: 8-mer, flanks averaged, mean of 2 arrays, mostly near background
# Residues (chain): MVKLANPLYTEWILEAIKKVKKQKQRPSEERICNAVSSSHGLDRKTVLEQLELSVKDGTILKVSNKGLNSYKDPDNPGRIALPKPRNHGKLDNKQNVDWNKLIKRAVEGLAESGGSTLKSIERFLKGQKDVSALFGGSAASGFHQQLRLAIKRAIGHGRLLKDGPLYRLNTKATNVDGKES
Sequence,E-score
GAGGATCC,0.0373
CAACGCTA,0.0718
ACGAAGGG,-0.0762
ACGGTGAA,0.106
AGTCTAGC,-0.0444
CTCACTCC,-0.0624
CAATCCCC,-0.106
ACTGAGCC,-0.0695
CCTGCGAA,-0.145
CGGTCTGA,0.161
ACTCAATG,-0.0946
CCCGTAGC,0.236
GACGAAAA,0.0485
TCTGCTAA,-0.189
CCGCCGAA,0.293
TCACGACA,-0.1

# Set 4 — method: universal PBM; molecule type: double-stranded DNA, one strand shown; sample: in vitro; concentration: not given; direction: higher = stronger binding
# Target: Sal-like protein 4, full length isoform B (SALL4, Homo sapiens, UniProt Q9UJQ4-2, residues 1-616)
# Notes: 8-mer, flanks averaged, mean of replicates
Sequence,E-score
ATCAGTTC,-0.104
AAAGCTGG,-0.13
CATCCGCG,-0.0786
ACGGCAAT,0.18
ACTATTAC,0.213
TCCTAAAA,0.065
GTAGTAAC,0.0566
ATGTACCG,-0.0608
GGGGGGCA,-0.338
CGAAGTGA,-0.0484
TAAGTGAA,0.0786
ACAACCCT,-0.143
AGTCCTAA,0.0322
CTCTGCTA,-0.163
TGCGTAAA,0.155
CTGCATCA,0.0368
ATCTCTCC,-0.101
AACGCCGG,-0.202
AGAATCTG,-0.00606
CGGGACAA,-0.114
ACCTCGCC,-0.281
CTAATGGC,-0.0142
CCAAAGAG,-0.121
AGTAGCGG,-0.141
AGTCTCCA,-0.0347

# Set 5 — method: protein-binding microarray; molecule type: double-stranded DNA, one strand shown; sample: in vitro; concentration: 940 nM top; notes: 60-bp whole probe; together with: salmon DNA 0.4 mg/ml; reference: random background probes; direction: higher = stronger binding; all sequences stand within: GCCTAGCAC … GTCTTGATTCGCTTGACGCTGCTG
# Target: Interferon regulatory factor 5, full length, phosphomimetic (IRF5, Homo sapiens, UniProt Q13568-2, residues 1-514, S451D/S453D/S456D/S462D)
Sequence,fitted relative affinity [z-score]
TTAGGTATCCTACTGCTTTGGTGCTAG,-0.0471
GACGGTATCGATTTTCGGGACGTGCTA,6.07
GACGGTTTCGGACTGCGGACGTGCTAG,6.49
TTAGTTTTCGACTTTCGGTTAGTGCTA,4.36
GACGGACTGTACACTGGGGACGTGCTA,-0.444
CTCCCTTTCAGTTTTCCTATGTGCTAG,2.16
TTAGATTTCGGGTTTCGATTCGTGCTA,5.71
TTAGGTTTCGCTTTCGGTTAGTGCTAG,11.8
TTAGACATCGGGTTTCGATTAGTGCTA,5.36
CTTTGCCTCATCTTGCAGGTAGTGCTA,0.23
TTAGATTTCAGTATCGATGAGTGCTAG,4.8
CTCCCTCAGGGTTTCAGATGGTGCTAG,0.0318
GACGGTTTCGGGACTGGGAACGTGCTA,6.79
GACGATTCCAGTTTCGAAACGTGCTAG,4.7
GACGGTCCCGGTTTCGGGACGTGCTAG,3.57
GAAGAACTGGGGTATCGAGACGTGCTA,0.873
TAAGGTATCGGGTATCGGTTAGTGCTA,6.04
TAAGGTCTCCTTTTCCTTTAGTGCTAG,0.765
GACGAGCTGGGGACTGGAGACGTGCTA,-0.569
GACGGTCTCGGTTTAGGGACGTGCTAG,5.24
TCCCATTCTGAATTCGAATGGTGCTAG,1.23
TTAGGTTTCGGTATCGTTTAGTGCTAG,15.3
TTAGGTTCCGTTTTCGGTTAGTGCTAG,2.72
GACGGTATCATTATCCTGACGTGCTAG,2.75

# Set 6 — method: aptamer microarray, sandwich; molecule type: DNA with 2'F-ANA; sample: in vitro; concentration: 200 nM; together with: Cy3 exosite-II aptamer, 400 nM; direction: higher = stronger binding; sequence: GGTTGGTGTGGTTGG
# Target: Prothrombin, mature alpha-thrombin (F2, Homo sapiens, UniProt P00734)
# Notes: whole 15-mer aptamer, many near background
Modification,mean fluorescence intensity [a.u.]
2'F-ANA at 1 2 5 7 8 10 11 13 14 15,103
2'F-ANA at 1 2 4 7 8 12 13 15,352
2'F-ANA at 1 2 6 8 10 14 15,50.7
2'F-ANA at 1 2 3 4 5 7 8 9 10 15,76.5
2'F-ANA at 6 7 8 9 12 14,270
2'F-ANA at 2 9 10 11 14 15,147
2'F-ANA at 1 2 3 4 8 10 14,85.9
2'F-ANA at 1 2 3 5 6 7 8 9 10 12 13 14,49.3
2'F-ANA at 3 4 6 7 8 11 13 15,514
2'F-ANA at 1 4 7 10 11 13 15,46.9
2'F-ANA at 3 5 7 9 10 11 14,55.5
2'F-ANA at 1 4 5 6 7 12,116
2'F-ANA at 2 6 7 10 11 13,119
2'F-ANA at 3 4 6 11 12 14 15,334
2'F-ANA at 2 3 4 5 7 9 10 12,86.1
2'F-ANA at 1 2 4 5 6 7 10 11 15,48
2'F-ANA at 3 8 9 10 12,707
2'F-ANA at 1 2 6 9 13,107
2'F-ANA at 1 5 9 10 11 13,42.8
2'F-ANA at 4 5 6 8 13 14 15,112
2'F-ANA at 1 2 3 4 6 12 13 14,84.7
2'F-ANA at 1 2 3 5 8 9 10 11 12 15,77.9
2'F-ANA at 1 2 6 7 8 10 12 14 15,47.9

# Some of these lines once more (set 4):
Sequence,E-score
AAAGCTGG,-0.13
CATCCGCG,-0.0786
ACGGCAAT,0.18
ACTATTAC,0.213
TCCTAAAA,0.065
GTAGTAAC,0.0566
ATGTACCG,-0.0608
GGGGGGCA,-0.338
CGAAGTGA,-0.0484
TAAGTGAA,0.0786
ACAACCCT,-0.143
AGTCCTAA,0.0322
CTCTGCTA,-0.163
TGCGTAAA,0.155
CTGCATCA,0.0368
ATCTCTCC,-0.101
AACGCCGG,-0.202
